# Experimental data gathered from unrelated publications.
# Numbered parts are unrelated; each lists some results of a single study. Positions count from the first letter of the parent shown.

# Block 1 — method: protein binding microarray; form: double-stranded DNA, one strand shown; medium: in vitro; tested at: not given; reference: not given; direction: higher = stronger binding
# Target: Histone acetyltransferase KAT6A, winged helix 1, GST fusion (KAT6A, Homo sapiens, UniProt Q92794, residues 1-85)
# Setting: 8-mer, flanks averaged, mean of 2 arrays, mostly near background
# Residues (chain): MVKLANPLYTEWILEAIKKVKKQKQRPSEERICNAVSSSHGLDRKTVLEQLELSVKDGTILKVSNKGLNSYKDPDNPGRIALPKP
Strand,E-score
ACGACAAG,-0.129
AATCTTGC,-0.13
CGCGAAAA,0.182
AGTACACA,-0.00659
CGGACTAA,0.134
AAGCTTCA,-0.114
CTGAGATC,-0.0966
AAGCCTGT,-0.0352
AATGTGGT,-0.179

# Block 2 — method: protein-binding microarray; form: double-stranded DNA, one strand shown; medium: in vitro; tested at: 250 nM; setting: 60-bp whole probe; together with: salmon DNA 0.4 mg/ml; reference: random background probes; direction: higher = stronger binding; all sequences stand within: GCCTAGCAC … GTCTTGATTCGCTTGACGCTGCTG
# Target: Interferon regulatory factor 7, full length, phosphomimetic (IRF7, Homo sapiens, UniProt Q92985, residues 1-503, S101K/S471D/S472D/S475D/S476D/S477D/S483D/S484D/S487D)
# UniProt Q92985, sequence (whole entry, unmodified, looked up): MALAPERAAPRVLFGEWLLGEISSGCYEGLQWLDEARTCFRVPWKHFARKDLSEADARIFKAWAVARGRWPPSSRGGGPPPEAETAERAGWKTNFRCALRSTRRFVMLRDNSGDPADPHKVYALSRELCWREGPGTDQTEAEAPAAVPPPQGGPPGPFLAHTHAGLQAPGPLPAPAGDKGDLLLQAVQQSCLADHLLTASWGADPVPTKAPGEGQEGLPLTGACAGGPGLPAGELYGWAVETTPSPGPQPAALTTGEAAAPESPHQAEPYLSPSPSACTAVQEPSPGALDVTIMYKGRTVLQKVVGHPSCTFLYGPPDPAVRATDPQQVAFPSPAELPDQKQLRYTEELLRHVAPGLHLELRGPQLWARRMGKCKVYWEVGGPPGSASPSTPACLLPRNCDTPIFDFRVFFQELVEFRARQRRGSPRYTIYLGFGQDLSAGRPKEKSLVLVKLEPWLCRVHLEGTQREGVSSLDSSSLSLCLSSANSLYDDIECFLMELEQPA
Strand,log fluorescence [z-score]
CAAATTGTCTCTGTCCCTGTGTGCTAG,0.216
TTAGGTTTAGACACTGGGTTAGTGCTA,-0.141
TTAGGTATCCAACTGCTTTAGTGCTAG,-0.319
TTAGGTATCCTAGTGCTTTAGTGCTAG,-0.354
TTAGGTATCGGATTCGGTTAGTGCTAG,4.69
TCATTTCTCATTCGTCATACTGTGCTA,2.86
GACGGACTTGGACTGGGGACGTGCTAG,-0.497

# Block 3 — target: CCNF, cyclin fold, Cln2 fusion (human); method: yeast growth competition, sequencing; medium: yeast; setting: strong parent motif; reference: not given; direction: higher = stronger binding
# Starting sequence: BRCA2 docking peptide (human); PSIKRNLLNEFDR
Change,normalised enrichment score
R13K,2.35
N6V,1.21
R13T,2.67

# Mixed results
Molecule,target,test,test system,conditions,scale,quantity,value
"PhoQ, residues 284 288 289 292 302 303 SIHLQL","PhoP, residues 12 14 15 18 19 TPWLV (Escherichia coli, UniProt P23836)","Sort-seq, measured: YFP reporter",E. coli,"PhoQ-PhoP variant library, together with: 10 µM Mg2+","reference: high Mg2+ state, higher = stronger signaling",fold induction,13.6
